Published values pooled from the literature.
Parts stem from different laboratories: compare values within a part only. Values joined by “and” are separate records of one study, mostly repeats; a detail may differ.

Series 1
Target: RING finger protein unkempt homolog, zinc fingers 1-6, GST-SBP tag (UNK, Homo sapiens, UniProt Q9C0B0, residues 30-357)
Sequence of UniProt Q9C0B0 (30-357, looked up): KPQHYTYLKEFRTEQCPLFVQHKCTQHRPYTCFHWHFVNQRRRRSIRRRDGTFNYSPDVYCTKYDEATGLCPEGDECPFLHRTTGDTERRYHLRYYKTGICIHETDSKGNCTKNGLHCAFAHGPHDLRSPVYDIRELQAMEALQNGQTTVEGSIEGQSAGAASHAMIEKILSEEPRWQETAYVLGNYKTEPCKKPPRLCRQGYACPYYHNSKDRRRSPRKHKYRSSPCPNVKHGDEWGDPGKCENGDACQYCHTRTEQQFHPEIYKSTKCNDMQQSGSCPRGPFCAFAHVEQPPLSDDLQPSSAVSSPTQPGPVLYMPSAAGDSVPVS
Technique: RNA Bind-n-Seq
Molecule type: RNA
Medium: in vitro
Concentration: not given
Setting: RNA with constant flanks, human and mouse sites, ends assumed
Reference: input RNA pool
Direction: higher = stronger binding
All sequences stand within: GGGAGUUCUACAGUCCGACGAUC … CAACAGAGGAUUGAGCAUCA
The bound/input enrichment of `GUGGAGGCCCUUUGUGCUGAACACCAAAUCAACCUAAUUAAGGUUGAUGACAACAAGAAACUAGGAGAAUGGGUAGGCCUUUGUAAAAUUGACAGAGAGGGGAAACCCCGUAAAGUGGUU` is reported as 0.755 ratio.
`GUGCUUCAUAUCAGCUCUCUUCUUGCAUGGACACUACUGCUGACCAUAUGCCCAAUCAAUGAAGUGAAGAAAAAGCUUGAGAUGCAUUUCCAUAAGCUUCCAAGCCUCCUCUCUUGUGAU` gave a bound/input enrichment of 0.115 ratio.
The bound/input enrichment of `AAUCCUCAACUUGUUCUAGCUUGUGAUCCCUCAAAGUUGGGUCAUACGUUAGUGCUAGAUACUAGAAAUUUUCACUUUUCCACUGAUCAGAGAGACAGACAUUAAAAACAAAAAUAGAAG` is reported as 10.6 ratio.
`UCAAGGCUGACAGUGACACUAAUGAAACAUGAUAUCAGGAAAAAUGUAAUAAGCCAUCUGGUAAGUUUUCUUAAAGGAUGUUGUUAAGAAGUCCAUCUAAAAACAUGUCUAGACUUUUUU` gave a bound/input enrichment of 0.491 ratio.
`GACGAACAAGGCGGCGGCGUGGGCACCAAGGACCACGGGGGCGGCGGCGGCGGUGGCAAAGACCAGCAGCAGCAGCAGCAGGAGGCACCUUUAGGCCCGGGUCCCAAGUUUUGCAAAGCC` has a bound/input enrichment of 0.129 ratio.
For `GAGCAGUUUGAACGCUACCUACAUGAUGAGAGUGGACUGAACAGGCGUCACAUCAUUGAUAACAGGGUACAUUGUUGCUUCUACUUCAUUUCACCUUUUGGACAUGGACUGAAGCCCUUA`, the bound/input enrichment was 0.114 ratio.
For `AGGUUCUGGCUGAUAGACUGUCGACAGAUUCAGGAGUCUGUUGCCUUUGCAUCACAAGUGUAUAGAGAAAUUAUCUGUGUGCCAUAUAUGGCCAAAUUUGUAGUGUUUGCCAAGUCACAU`, the bound/input enrichment was 0.844 ratio.
With `GACUGUUCAAGCAAAAAAGGUAACUAACUGCUUCAUCUCCUUUUGCGCUUAUUUGGAAAUUUUAGUUAUAGUGUUUAACUGGCAUGGAUUAAUAGAGUUGGAGUUUUAUUUUUAAGAAAA` the bound/input enrichment was 6.23 ratio.

Series 2
Target: Ras GTPase-activating protein-binding protein 1, C-terminal RGG region (G3BP1, Homo sapiens, UniProt Q13283)
Sequence of UniProt Q13283 (whole entry, looked up): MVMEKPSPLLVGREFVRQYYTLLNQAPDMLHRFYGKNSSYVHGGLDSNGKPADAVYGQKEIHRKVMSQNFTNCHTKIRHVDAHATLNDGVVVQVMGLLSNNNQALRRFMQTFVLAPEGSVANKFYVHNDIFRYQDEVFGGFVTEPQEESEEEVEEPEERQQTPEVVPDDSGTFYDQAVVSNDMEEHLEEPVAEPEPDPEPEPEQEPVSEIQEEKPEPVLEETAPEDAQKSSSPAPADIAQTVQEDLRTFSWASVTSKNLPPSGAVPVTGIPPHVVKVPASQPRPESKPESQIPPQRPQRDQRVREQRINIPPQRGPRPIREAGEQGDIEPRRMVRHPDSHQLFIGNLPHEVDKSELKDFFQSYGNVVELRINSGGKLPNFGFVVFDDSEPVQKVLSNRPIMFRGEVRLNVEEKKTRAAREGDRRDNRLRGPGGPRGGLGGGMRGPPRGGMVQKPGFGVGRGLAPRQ
Technique: RNA Bind-n-Seq
Molecule type: RNA
Medium: in vitro
Concentration: 1 µM
Setting: whole 134-nt RNA, ends assumed
Added: 150 mM KCl
Reference: input library
Direction: higher = stronger binding
All sequences stand within: GGGAGUUCUACAGUCCGACGAUC … UGGAAUUCUCGGGUGUCAAGG
With `CAAGUCCUGUGCUACACAUCGUAUGUACCGAAUCGGAAAGGUUUUUUUGGUUUGGAAAGUAUUAUGUUACGCCGUUCGGAUCUGCACUUC` the log2 enrichment was -2.17.
`CCUCAAGUCCUGUGCUACACAUCGUAUGUACCGAAUCGGGGAGGAGGAGGGGAAAGUAUUAUGUUACGCCGUUCGGAUCUGCACUUCCAG` gave a log2 enrichment of -0.379.
`UGUGCUACACAUCGUAUGUACCGAAUCGGGGUUUUUUUGGGGUUUUUUUGGGUUUUUUUGGGAAAGUAUUAUGUUACGCCGUUCGGAUCU` has a log2 enrichment of -0.835.
`CAAGUCCUGUGCUACACAUCGUAUGUACCGAAUCGGGCCCGGGCCCGGGCCCGGGGAAAGUAUUAUGUUACGCCGUUCGGAUCUGCACUU` gave a log2 enrichment of -1.83.
For `AAGUCCUGUGCUACACAUCGUAUGUACCGAAUCGGGGUUUGGGUUUGGGUUUGGGGAAAGUAUUAUGUUACGCCGUUCGGAUCUGCACUU`, the log2 enrichment was 2.01.
The log2 enrichment of `UCAAGUCCUGUGCUACACAUCGUAUGUACCGAAUCGGUUUGGAAAAAAAGGUGGAAAGUAUUAUGUUACGCCGUUCGGAUCUGCACUUCC` is reported as -1.22.

Series 3
Target: Sal-like protein 4, full length isoform B (SALL4, Homo sapiens, UniProt Q9UJQ4-2, residues 1-616)
Technique: universal PBM
Molecule type: double-stranded DNA, one strand shown
Medium: in vitro
Concentration: not given
Setting: 8-mer, flanks averaged, mean of replicates
Direction: higher = stronger binding
Residues (chain): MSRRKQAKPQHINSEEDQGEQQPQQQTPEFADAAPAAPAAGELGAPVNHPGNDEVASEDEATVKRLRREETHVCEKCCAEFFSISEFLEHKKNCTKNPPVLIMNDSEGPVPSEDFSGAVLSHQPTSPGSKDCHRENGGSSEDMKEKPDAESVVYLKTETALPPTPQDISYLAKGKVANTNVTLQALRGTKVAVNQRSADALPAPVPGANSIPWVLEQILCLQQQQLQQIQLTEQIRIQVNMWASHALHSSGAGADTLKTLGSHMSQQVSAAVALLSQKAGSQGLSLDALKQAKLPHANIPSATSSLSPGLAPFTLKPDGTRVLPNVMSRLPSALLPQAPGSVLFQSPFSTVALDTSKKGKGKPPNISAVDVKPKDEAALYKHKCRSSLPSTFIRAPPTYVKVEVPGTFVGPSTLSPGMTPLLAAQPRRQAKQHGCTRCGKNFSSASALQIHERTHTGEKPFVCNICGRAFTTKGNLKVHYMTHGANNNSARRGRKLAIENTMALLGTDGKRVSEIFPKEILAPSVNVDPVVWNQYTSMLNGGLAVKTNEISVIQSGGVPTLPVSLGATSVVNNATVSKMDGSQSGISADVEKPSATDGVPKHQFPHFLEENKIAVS
With `AAGCCAAG` the E-score was -0.224.
`GTAAACGA` gave an E-score of 0.171.
The E-score of `ACAGGCAA` is reported as 0.0644.
For `AAGGCATT`, the E-score was -0.00876.
For `CTTTGTCA`, the E-score was 0.141.
For `AAACTTCA`, the E-score was 0.212.
With `TCACGTAA` the E-score was 0.176.
`AGTCAGCG` has an E-score of -0.316.
The E-score of `CCCATGGC` is reported as -0.345.
The E-score of `AGACTCAG` is reported as -0.123.
The E-score of `CTTGACCC` is reported as -0.269.

Further values, each from its own experiment
`PhoQ, residues 284 288 289 292 302 303 TLMATV` gave a fold induction of 1.76 and 2.67 (PhoP, residues 12 14 15 18 19 LWHSL (Escherichia coli, UniProt P23836); Sort-seq, measured: YFP reporter; E. coli; PhoQ-PhoP variant library, added: 10 µM Mg2+; reference: high Mg2+ state, higher = stronger signaling).

A few entries again (series 3):
With `TCACGTAA` the E-score was 0.176.
`AGTCAGCG` has an E-score of -0.316.
